Published values gathered from unrelated publications.
± marks the error that the study gave.
embR: Transcriptional regulatory protein EmbR (embR, Mycobacterium tuberculosis, UniProt P9WGJ9)
Sequence of UniProt P9WGJ9 (whole entry, looked up): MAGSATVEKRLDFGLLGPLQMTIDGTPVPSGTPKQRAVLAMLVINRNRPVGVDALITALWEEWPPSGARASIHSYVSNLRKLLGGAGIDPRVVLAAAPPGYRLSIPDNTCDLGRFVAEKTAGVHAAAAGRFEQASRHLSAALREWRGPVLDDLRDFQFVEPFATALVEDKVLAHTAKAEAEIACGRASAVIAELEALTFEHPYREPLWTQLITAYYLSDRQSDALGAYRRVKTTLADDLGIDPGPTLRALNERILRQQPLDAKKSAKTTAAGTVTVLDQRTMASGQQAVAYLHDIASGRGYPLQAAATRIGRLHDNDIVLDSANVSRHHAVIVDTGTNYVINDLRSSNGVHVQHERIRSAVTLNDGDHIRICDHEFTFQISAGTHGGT
Spike glycoprotein: Spike glycoprotein (Severe acute respiratory syndrome coronavirus 2, UniProt P0DTC2)
ASIC1: Acid-sensing ion channel 1 (ASIC1, Homo sapiens, UniProt P78348)
Sequence of UniProt P78348 (whole entry, looked up): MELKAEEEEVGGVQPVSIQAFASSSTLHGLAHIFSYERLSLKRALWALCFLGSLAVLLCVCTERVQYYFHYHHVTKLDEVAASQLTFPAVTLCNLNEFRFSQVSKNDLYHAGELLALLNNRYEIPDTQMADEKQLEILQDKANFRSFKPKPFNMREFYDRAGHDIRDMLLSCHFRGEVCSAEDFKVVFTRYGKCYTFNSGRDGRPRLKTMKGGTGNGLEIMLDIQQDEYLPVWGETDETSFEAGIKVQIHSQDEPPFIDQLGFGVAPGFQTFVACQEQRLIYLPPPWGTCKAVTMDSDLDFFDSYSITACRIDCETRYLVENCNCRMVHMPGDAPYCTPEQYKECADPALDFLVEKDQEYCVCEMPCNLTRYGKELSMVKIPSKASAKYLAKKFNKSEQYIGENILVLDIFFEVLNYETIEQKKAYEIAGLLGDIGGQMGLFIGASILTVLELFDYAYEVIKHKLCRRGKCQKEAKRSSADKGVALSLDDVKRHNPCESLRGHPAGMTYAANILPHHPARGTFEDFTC
Sequence of UniProt O82882 (whole entry, looked up): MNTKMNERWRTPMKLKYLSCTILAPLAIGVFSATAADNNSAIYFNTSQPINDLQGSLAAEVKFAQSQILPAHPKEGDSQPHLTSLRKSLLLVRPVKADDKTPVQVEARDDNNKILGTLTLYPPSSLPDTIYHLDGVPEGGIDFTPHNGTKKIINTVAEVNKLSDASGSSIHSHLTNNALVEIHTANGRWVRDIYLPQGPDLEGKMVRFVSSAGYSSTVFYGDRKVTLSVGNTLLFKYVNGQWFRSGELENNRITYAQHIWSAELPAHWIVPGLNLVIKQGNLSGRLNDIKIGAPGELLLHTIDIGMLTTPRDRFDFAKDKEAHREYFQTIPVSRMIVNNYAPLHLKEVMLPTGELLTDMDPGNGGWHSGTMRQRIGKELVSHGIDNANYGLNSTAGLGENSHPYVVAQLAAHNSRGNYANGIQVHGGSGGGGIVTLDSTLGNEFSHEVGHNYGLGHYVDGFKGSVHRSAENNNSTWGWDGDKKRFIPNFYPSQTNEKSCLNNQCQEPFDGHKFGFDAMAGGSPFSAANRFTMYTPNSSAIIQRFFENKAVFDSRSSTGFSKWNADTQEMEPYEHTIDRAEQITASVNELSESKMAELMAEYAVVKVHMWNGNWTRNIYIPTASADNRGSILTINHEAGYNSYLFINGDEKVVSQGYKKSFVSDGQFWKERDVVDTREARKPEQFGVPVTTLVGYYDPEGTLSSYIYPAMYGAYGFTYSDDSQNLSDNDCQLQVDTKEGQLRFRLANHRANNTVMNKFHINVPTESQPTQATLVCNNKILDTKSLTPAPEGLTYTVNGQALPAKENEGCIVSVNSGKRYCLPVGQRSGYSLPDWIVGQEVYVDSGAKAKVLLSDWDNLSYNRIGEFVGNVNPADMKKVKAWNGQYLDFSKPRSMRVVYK

SMILES	tested on	assay	system	conditions	scale	measurement	value
CC(C)C[C@H](NC(=O)[C@H](C)NC(=O)[C@H](CCC(=O)O)NC(=O)[C@@H](N)Cc1c[nH]cn1)C(=O)N[C@@H](CO)C(=O)N[C@@H](CC(=O)O)C(=O)N1CCC[C@H]1C(=O)N[C@@H](CC(=O)O)C(=O)O	embR	binding	–	–	–	kon	250 ± 440 M⁻¹ s⁻¹
CNC(=O)[C@@H](NC(=O)[C@H](CC(C)C)[C@H](O)C(=O)NO)C(C)(C)C	human fibrinogen	SDS-PAGE	Daboia russelii	concentration not given, unit not given, together with: AP venom	reference: untreated fibrinogen	remaining fibrinogen γ chain	0.825
CC(C)C[C@H](NC(=O)[C@@H](N)CO)C(=O)N[C@@H](CCC(=O)O)C(=O)N[C@H](C(=O)N[C@H](C(=O)N[C@@H](CCC(=O)O)C(=O)N[C@@H](C)C(=O)N[C@@H](CC(=O)O)C(=O)O)[C@@H](C)O)C(C)C	embR	binding	–	–	–	kon	270 ± 240 M⁻¹ s⁻¹
CC(=O)N[C@H]1[C@@H](OC[C@H](NC(=O)[C@H](C)NC(=O)[C@H](C)N)C(=O)N[C@H](C(=O)N[C@H](C(=O)N[C@H](C(=O)N2CCC[C@H]2C(=O)N[C@@H](C)C(=O)N2CCC[C@H]2C(=O)N[C@@H](C)C(N)=O)[C@@H](C)O[C@H]2O[C@H](CO)[C@H](O)[C@H](O)[C@H]2NC(C)=O)[C@@H](C)O[C@H]2O[C@H](CO)[C@H](O)[C@H](O)[C@H]2NC(C)=O)[C@@H](C)O[C@H]2O[C@H](CO)[C@H](O)[C@H](O)[C@H]2NC(C)=O)O[C@H](CO)[C@H](O)[C@@H]1O	Metalloprotease StcE (stcE, Escherichia coli O157:H7, UniProt O82882)	binding	Escherichia coli, EHEC	pH 7.5	–	kon	498000 M⁻¹ s⁻¹
Nc1ncnc2c([C@@H]3N[C@H](CO)[C@@H](O)[C@H]3O)c[nH]c12	Marburg virus	–	HeLa, Musoke	100 µM, 1 h	–	viral RNA copies	799000 copies/mL
COC(=O)[C@]1(C)CC[C@]2(C(=O)O[C@@H]3O[C@H](CO)[C@@H](O)[C@H](O)[C@H]3O)CC[C@]3(C)C(=CC[C@@H]4[C@@]5(C)C[C@H](O)[C@H](O[C@@H]6OC[C@@H](O[C@@H]7O[C@H](CO)[C@@H](O)[C@H](O)[C@H]7O)[C@H](O)[C@H]6O)[C@@](C)(CO)C5CC[C@]43C)[C@H]2C1 (stereo partly shown)	Spike glycoprotein	binding, biolayer interferometry	–	–	–	kon	41200 M⁻¹ s⁻¹
CC(C)OC(=O)[C@H](C)N[P@](=O)(OC[C@H]1O[C@@H](n2ccc(=O)[nH]c2=O)[C@](C)(F)[C@@H]1O)Oc1ccccc1	Genome polyprotein, NS5 RdRp domain (Yellow fever virus, UniProt P03314)	–	–	–	–	kon	76.7 M⁻¹ s⁻¹
Cn1cnc(Cn2c(=O)[nH]/c(=N\c3cc4cn(C)nc4cc3Cl)n(Cc3cc(F)c(F)cc3F)c2=O)n1	–	–	human, mild renal impairment, plasma	oral, 375 mg single dose, 24 h	–	unbound fraction	0.0128
CC[C@H](C)[C@H](NC(=O)[C@H](CC(C)C)NC(=O)[C@H](Cc1c[nH]c2ccccc12)NC(=O)[C@H](CCC(N)=O)NC(=O)[C@@H](NC(=O)[C@H](Cc1ccccc1)NC(=O)[C@H](C)NC(=O)[C@H](CCCCNC(=O)COCCOCCNC(=O)COCCOCCNC(=O)CC[C@H](NC(=O)CCCCCCCCCCCCCCCCCCC(=O)O)C(=O)O)NC(=O)[C@H](CCC(N)=O)NC(=O)[C@H](C)NC(=O)[C@@H](NC(=O)[C@H](CCCCN)NC(=O)[C@H](CC(=O)O)NC(=O)[C@H](CC(C)C)NC(=O)C(C)(C)NC(=O)[C@@H](NC(=O)[C@H](CO)NC(=O)[C@H](Cc1ccc(O)cc1)NC(=O)[C@H](CC(=O)O)NC(=O)[C@H](CO)NC(=O)[C@@H](NC(=O)[C@H](Cc1ccccc1)NC(=O)[C@@H](NC(=O)CNC(=O)[C@H](CCC(=O)O)NC(=O)C(C)(C)NC(=O)[C@@H](N)Cc1ccc(O)cc1)[C@@H](C)O)[C@@H](C)O)[C@@H](C)CC)[C@@H](C)CC)C(C)C)C(=O)N[C@@H](C)C(=O)NCC(=O)NCC(=O)N1CCC[C@H]1C(=O)N[C@@H](CO)C(=O)N[C@@H](CO)C(=O)NCC(=O)N[C@@H](C)C(=O)N1CCC[C@H]1C(=O)N1CCC[C@H]1C(=O)N1CCC[C@H]1C(=O)N[C@@H](CO)C(N)=O	–	–	healthy subjects, single ascending dose	0.5 mg, titre ≥1:20	–	treatment-induced ADA positive subjects	0%
NC[C@H]1O[C@H](O[C@H]2[C@H](O)[C@@H](O[C@H]3O[C@H](CO)[C@@H](O)[C@H](N)[C@H]3O)[C@H](N)C[C@@H]2N)[C@H](N)C[C@@H]1O	Spike glycoprotein	binding, BLI	–	–	–	kon	77.4 M⁻¹ s⁻¹
CC[C@H](C)[C@H](NC(=O)[C@@H]1CCCN1C(=O)[C@H](C)NC(=O)[C@@H]1CSSC[C@@H]2NC(=O)[C@H](CC(=O)O)NC(=O)[C@H](CCCNC(=N)N)NC(=O)[C@H](CCC(=O)O)NC(=O)[C@H](CCCNC(=N)N)NC(=O)CNC(=O)[C@H](CC(=O)O)NC(=O)[C@@H]3CSSC[C@H](NC(=O)[C@H](CCC(=O)O)NC(=O)[C@H](CC(C)C)NC(=O)CNC(=O)[C@H](C)NC(=O)[C@H](CSSC[C@H](NC(=O)[C@H](Cc4ccccc4)NC(=O)[C@@H](N)CO)C(=O)N[C@@H](CC(C)C)C(=O)N[C@@H](C(C)C)C(=O)N[C@@H](CCCCN)C(=O)N[C@@H](Cc4c[nH]c5ccccc45)C(=O)N[C@@H](CCCCN)C(=O)N[C@@H](CCC(N)=O)C(=O)N3)NC2=O)C(=O)N[C@@H](Cc2c[nH]c3ccccc23)C(=O)N[C@@H](CCCCN)C(=O)N[C@@H](CCCNC(=N)N)C(=O)N[C@@H](CO)C(=O)NCC(=O)N[C@@H](CC(N)=O)C(=O)N[C@@H](CCCCN)C(=O)N[C@@H](CO)C(=O)N[C@@H](CO)C(=O)N[C@@H](C(C)C)C(=O)N1)C(=O)N[C@H](C(=O)O)[C@@H](C)O	ASIC1	binding, SPR	–	pH 7.5	–	kon	2.1e+07 M⁻¹ s⁻¹
CC(C)(O)[C@H]1CC[C@@](C)([C@H]2[C@@H](O)C[C@@]3(C)[C@@H]4C[C@H](O[C@@H]5O[C@H](CO)[C@@H](O)[C@H](O)[C@H]5O)[C@H]5C(C)(C)[C@@H](O[C@@H]6OC[C@@H](O)[C@H](O)[C@H]6O)CC[C@@]56C[C@@]46CC[C@]23C)O1	Spike glycoprotein	binding, biolayer interferometry	–	–	–	kon	3460 M⁻¹ s⁻¹
CC[C@H](C)[C@H](NC(=O)[C@@H]1CCCN1C(=O)[C@H](C)NC(=O)[C@@H]1CSSC[C@@H]2NC(=O)[C@H](CC(=O)O)NC(=O)[C@H](CCCNC(=N)N)NC(=O)[C@H](CCC(=O)O)NC(=O)[C@H](CCCNC(=N)N)NC(=O)CNC(=O)[C@H](CC(=O)O)NC(=O)[C@@H]3CSSC[C@H](NC(=O)[C@H](CCC(=O)O)NC(=O)[C@H](CC(C)C)NC(=O)CNC(=O)[C@H](C)NC(=O)[C@H](CSSC[C@H](NC(=O)[C@H](Cc4ccccc4)NC(=O)[C@@H](N)CO)C(=O)N[C@@H](CC(C)C)C(=O)N[C@@H](C(C)C)C(=O)N[C@@H](CCCCN)C(=O)N[C@@H](Cc4c[nH]c5ccccc45)C(=O)N[C@@H](CCCCN)C(=O)N[C@@H](CCC(N)=O)C(=O)N3)NC2=O)C(=O)N[C@@H](Cc2c[nH]c3ccccc23)C(=O)N[C@@H](CCCCN)C(=O)N[C@@H](CCCNC(=N)N)C(=O)N[C@@H](CO)C(=O)NCC(=O)N[C@@H](CO)C(=O)N[C@@H](CCCCN)C(=O)N[C@@H](CO)C(=O)N[C@@H](CO)C(=O)N[C@@H](C(C)C)C(=O)N1)C(=O)N[C@H](C(=O)O)[C@@H](C)O	ASIC1	binding, SPR	–	pH 7.5	–	kon	1.53e+07 M⁻¹ s⁻¹

Some of these lines once more:
SMILES	tested on	assay	system	conditions	scale	measurement	value
CC[C@H](C)[C@H](NC(=O)[C@@H]1CCCN1C(=O)[C@H](C)NC(=O)[C@@H]1CSSC[C@@H]2NC(=O)[C@H](CC(=O)O)NC(=O)[C@H](CCCNC(=N)N)NC(=O)[C@H](CCC(=O)O)NC(=O)[C@H](CCCNC(=N)N)NC(=O)CNC(=O)[C@H](CC(=O)O)NC(=O)[C@@H]3CSSC[C@H](NC(=O)[C@H](CCC(=O)O)NC(=O)[C@H](CC(C)C)NC(=O)CNC(=O)[C@H](C)NC(=O)[C@H](CSSC[C@H](NC(=O)[C@H](Cc4ccccc4)NC(=O)[C@@H](N)CO)C(=O)N[C@@H](CC(C)C)C(=O)N[C@@H](C(C)C)C(=O)N[C@@H](CCCCN)C(=O)N[C@@H](Cc4c[nH]c5ccccc45)C(=O)N[C@@H](CCCCN)C(=O)N[C@@H](CCC(N)=O)C(=O)N3)NC2=O)C(=O)N[C@@H](Cc2c[nH]c3ccccc23)C(=O)N[C@@H](CCCCN)C(=O)N[C@@H](CCCNC(=N)N)C(=O)N[C@@H](CO)C(=O)NCC(=O)N[C@@H](CC(N)=O)C(=O)N[C@@H](CCCCN)C(=O)N[C@@H](CO)C(=O)N[C@@H](CO)C(=O)N[C@@H](C(C)C)C(=O)N1)C(=O)N[C@H](C(=O)O)[C@@H](C)O	ASIC1	binding, SPR	–	pH 7.5	–	kon	2.1e+07 M⁻¹ s⁻¹
